Experimental data gathered from unrelated publications.
Compare with care: the assays were run in different laboratories. Numbers after ± are the reported error.

| SMILES | medium | concentration | time | intrinsic clearance |
| --- | --- | --- | --- | --- |
| O=C(Cc1ccc(Cl)c(Cl)c1)N(Cc1ccccc1)[C@@H]1CCCC[C@H]1N1CCCC1 | mouse liver microsomes |  |  | 1.1 mL/min/g |
| Cc1ccc(F)c(C(=O)C=C(O)C(=O)OCc2ccccc2)c1Cl | mouse liver microsomes | 0.5 µM | 30 min | > 30 mL/min/g |
| CN(C(=O)Cc1ccc(-c2ccccc2)cc1)[C@@H]1CCCC[C@H]1N1CCCC1 | mouse liver microsomes |  |  | 2.7 mL/min/g |
| Cc1cc(S(=O)(=O)N(C)CC(=O)Nc2ccc(N3CCOCC3)c(Cl)c2)c2[nH]ncc2c1 | human liver microsomes |  |  | 195 µL/min/mg |
| CN(C(=O)Cc1ccc(Cl)c(Cl)c1)[C@@H](CN1CCCC1)c1ccccc1 | human liver microsomes |  |  | 1.4 mL/min/g |
| Cc1cnc(N)c(S(=O)(=O)N(C)CC(=O)Nc2ccc(C#N)c(Cl)c2)c1 | human liver microsomes |  |  | 113 µL/min/mg |
| CN(C)CCNC(=O)c1cc(-c2ccccc2)nc2ccccc12 | mouse liver microsomes |  |  | 246 mL/min/kg |
| Cc1ccc2nc(C)c(C(=O)NCc3ccc(C(F)(F)F)cc3)n2c1 | rat liver microsomes |  |  | 48 mL/min/g protein |
| Cc1ccc2nc(C)c(C(=O)NCc3cccs3)n2c1 | mouse liver microsomes |  |  | > 30 mL/min/g |
| O=C(O)CCn1c(=O)oc2cc(Cl)c(Cl)cc21 | dog liver microsomes |  |  | < 0.5 mL/min/g |
| O=C(NC12CC3CC(CC(C3)C1)C2)c1cc2cc(Cl)ccc2[nH]1 | mouse liver microsomes |  |  | 3.3 mL/min/g |
| COc1ccc(C2(c3cn(-c4ccc(C)c(-c5cccc(C(=O)O)c5)c4)nn3)CC2)cc1 | human liver microsomes |  |  | 23.2 mL/min/kg |
| c1cc2c(s1)CCOC21CCN(Cc2ccc3c(c2)OCCO3)CC1 | human liver microsomes |  |  | 25.1 mL/min/g |
| COc1cc(NC(=O)CN(C)S(=O)(=O)c2cc(C)cnc2N)ccn1 | human liver microsomes |  |  | -14 µL/min/mg |
| COc1ccc2nc(C)cc(OCC(=O)Nc3ccccc3OC)c2c1 | mouse liver microsomes |  |  | > 30 mL/min/g |
| Cc1cnc(N)c(S(=O)(=O)N(C)CC(=O)Nc2ccc(OCCN(C)C)c(Cl)c2)c1 | human liver microsomes |  |  | 2 µL/min/mg |
| Cc1ccc2nc(C(F)(F)F)c(C(=O)NCc3cccc(Cl)c3)n2c1 | human liver microsomes |  |  | > 30 mL/min/g |
| NC1CC1c1ccc(NC(=O)c2cccc(NC(=O)OCc3ccccc3)c2)cc1 (stereo not drawn) | mouse liver microsomes | 1 µM |  | 4.3 ± 0.7 µL/min/mg protein |
| Cc1cccc(-c2nc(Nc3ccncn3)c3sccc3n2)n1 | mouse liver microsomes |  |  | 19.5 mL/min/g |
| CC(C)(C)c1cc(C(C)(C)C)c(-n2cc(-c3cnc4ccccc4c3O)nn2)cc1O | human liver microsomes |  |  | 56.2 mL/min/kg |
| CCc1ccc([C@@H]2C[C@H](C(F)(F)F)n3ncc(C(=O)NCc4ccc(OC)cc4)c3N2)cc1 | mouse liver microsomes |  |  | 1.9 mL/min/g |
| Cc1cnc(N)c(S(=O)(=O)N(C)CC(=O)Nc2ccc(N3CCOCC3)c(Cl)c2)c1 | human liver microsomes |  |  | 18 µL/min/mg |
| COc1ccc2nc(C)cc(OCC(=O)Nc3cc(C)cc(C)c3)c2c1 | human liver microsomes |  |  | 4.3 mL/min/g |
| Cc1cnc(N)c(S(=O)(=O)N(C)CC(=O)Nc2ccc(N3CCN(C)CC3)c(Cl)c2)c1 | human liver microsomes |  |  | 15 µL/min/mg |

For quick reference, copied from above:
| SMILES | medium | concentration | time | intrinsic clearance |
| --- | --- | --- | --- | --- |
| O=C(O)CCn1c(=O)oc2cc(Cl)c(Cl)cc21 | dog liver microsomes |  |  | < 0.5 mL/min/g |
| Cc1cccc(-c2nc(Nc3ccncn3)c3sccc3n2)n1 | mouse liver microsomes |  |  | 19.5 mL/min/g |
